Results gathered from unrelated publications.
Protocols differ between the studies behind these lines. Numbers after ± are the reported error.
Organism: Trypanosoma cruzi

SMILES	effect on	method	cell line	strain	time	setting	IC50
COc1ccc(C[C@H](N)C(=O)N[C@H]2[C@@H](O)[C@H](n3cnc4c(N(C)C)ncnc43)O[C@@H]2CO)cc1	–	PrestoBlue	–	trypomastigote	48 h	solid sample	0.44 ± 0.63 µM
COc1cccc(Oc2ccc(OCCSC#N)cc2)c1	parasite growth	tdTomato fluorescence	Vero	CL, tdTomato-expressing, amastigotes	3 d post-infection	–	4.6 µM
Cc1cc(NCCCn2ccnc2[N+](=O)[O-])nc(N)n1	growth	–	L6 myoblasts	Tulahuen C4	–	intracellular amastigotes	4 to 60 µM
O=C(Cn1ccnc1[N+](=O)[O-])NCc1ccccc1	parasite growth	–	mouse Peritoneal macrophage	–	48 h	intracellular, amastigote	5 µM
CCOc1cccc2sc(N(Cc3cccnc3)C(=O)C3CCCCC3)nc12	–	imaging	3T3 fibroblasts	Tulahuen amastigote	48 h	stored DMSO sample	0.46 ± 0.01 µM
CC[C@@H]([C@H](C)O)n1ncn(-c2ccc(N3CCN(c4ccc(OC[C@@H]5CO[C@@](Cn6cncn6)(c6ccc(F)cc6F)C5)cc4)CC3)cc2)c1=O	parasite growth	resazurin	–	–	48 h	epimastigote	5.43 µM
COc1cc(C(=O)N2CCN(Cc3ccccc3)CC2)ccc1O	parasite growth	–	mouse Peritoneal macrophage	–	48 h	intracellular, amastigote	35.9 µM
O=[N+]([O-])c1nccn1CCCNCc1cc(C(F)(F)F)cc(C(F)(F)F)c1	growth	–	L6 myoblasts	Tulahuen C4	–	intracellular amastigotes	4 to 60 µM
O=C(Cn1ccnc1[N+](=O)[O-])NCc1ccccc1	parasite growth	–	mouse Macrophage	–	24 h	intracellular, amastigote	2.67 µM
O=[N+]([O-])c1nccn1CCCNCc1ccc2cc(Br)ccc2n1	growth	–	L6 myoblasts	Tulahuen C4	–	intracellular amastigotes	4 to 60 µM
O=C(Cn1ccnc1[N+](=O)[O-])NCc1ccccc1	parasite viability	resazurin	–	Y, trypomastigotes	24 h	heme-free medium	13 ± 5.7 µM
Cc1cc(NCCCCn2ccnc2[N+](=O)[O-])nc(N)n1	growth	–	L6 myoblasts	Tulahuen C4	–	intracellular amastigotes	4 to 60 µM
Cc1cc(C2CCCCC2)n(O)c(=O)c1	–	PrestoBlue	–	trypomastigote	48 h	solid sample retest	1 ± 0.49 µM
N#CSCCOc1ccc(Oc2cccc([N+](=O)[O-])c2)cc1	parasite growth	–	Vero	–	72 h	intracellular, amastigote	5.2 µM
O=C(Cn1ccnc1[N+](=O)[O-])NCc1ccccc1	parasite release from CHO cells	–	–	Y strain, GFP-expressing	–	serum-free host culture	7.5 µM
O=C1C(Cl)=C(NCCCn2ccnc2[N+](=O)[O-])C(=O)c2ccccc21	growth	–	L6 myoblasts	Tulahuen C4	–	intracellular amastigotes	4 to 60 µM
COc1ccccc1N1CCN(C(CNS(=O)(=O)c2ccc(Cl)cc2)c2cccnc2)CC1 (stereo not shown)	–	imaging	3T3 fibroblasts	Tulahuen amastigote	48 h	stored DMSO sample	2.25 ± 0.31 µM
O=[N+]([O-])c1ccc(/C=N/N=C/c2ccccc2)o1	parasite growth	resazurin	–	–	–	trypomastigote	< 2.5 µM
O=C(NC(c1ccccc1)c1ccc2cccnc2c1O)c1ccccc1 (stereo not shown)	–	imaging	3T3 fibroblasts	Tulahuen amastigote	48 h	stored DMSO sample	0.69 ± 0.79 µM
O=C(Cn1ccnc1[N+](=O)[O-])NCc1ccccc1	–	–	–	Tulahuen C4, amastigotes	–	–	6.11 µM
O=C(c1ccc(Cl)cc1)N1CCN(Cc2ccccc2)CC1	parasite growth	–	mouse Peritoneal macrophage	–	48 h	intracellular, amastigote	> 60 µM
COc1ccc(C)c2sc(N(Cc3cccnc3)C(=O)c3ccc(C#N)cc3)nc12	–	imaging	3T3 fibroblasts	Tulahuen amastigote	48 h	–	2.32 ± 0.66 µM
